Results gathered from unrelated publications.
Protocols differ between the studies behind these lines. Numbers after ± are the reported error.
Target: Cytochrome P450 2C9 (CYP2C9, Homo sapiens, UniProt P11712)
Chain of UniProt P11712 (whole entry, looked up): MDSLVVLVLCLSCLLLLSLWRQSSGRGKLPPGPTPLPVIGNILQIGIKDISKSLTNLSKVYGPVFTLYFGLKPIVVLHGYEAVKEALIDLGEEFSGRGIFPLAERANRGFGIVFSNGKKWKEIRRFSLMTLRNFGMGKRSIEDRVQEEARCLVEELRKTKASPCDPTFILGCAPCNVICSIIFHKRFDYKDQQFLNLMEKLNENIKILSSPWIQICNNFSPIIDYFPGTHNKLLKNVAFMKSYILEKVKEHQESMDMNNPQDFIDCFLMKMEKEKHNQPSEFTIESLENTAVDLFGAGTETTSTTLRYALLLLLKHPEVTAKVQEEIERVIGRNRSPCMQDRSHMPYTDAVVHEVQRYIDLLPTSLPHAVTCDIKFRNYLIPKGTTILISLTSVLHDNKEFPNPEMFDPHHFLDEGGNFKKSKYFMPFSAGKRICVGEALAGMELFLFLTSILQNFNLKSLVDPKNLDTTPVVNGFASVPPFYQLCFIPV

Structure (SMILES)	assay	system	setting	IC50 [µM]
COC(=O)c1ccc2c(c1)NC(=O)/C2=C(\Nc1ccc2c(c1)CCN2C(=O)CN1CCOCC1)c1ccccc1	–	–	10 min, together with: diclofenac 5 µM	35.4
Cc1ccc2nc(C)c(C(=O)NCc3cccs3)n2c1	inhibitor	–	–	7.6
c1ccc(C2(CCNC3CCC4(SCCS4)c4ccccc43)CCOC3(CCCC3)C2)nc1 (stereo not shown)	enzyme activity, inhibitor	human, liver microsomes	–	34
c1cc2c(s1)CCOC21CCN(Cc2ccc3c(c2)OCCO3)CC1	inhibitor	–	–	48
C(#Cc1cncc(OC[C@@H]2CCN2)c1)c1ccccc1	enzyme activity, inhibitor	MFC	–	5.11
Cc1cccc(-c2nc(Nc3ccncn3)c3c(C)csc3n2)n1	inhibitor	–	–	17
CC(C)(O)c1ccccc1CC[C@H](c1cccc(/C=C/c2ccc3ccc(Cl)cc3n2)c1)S(=O)(=O)CC1(CC(=O)O)CC1	inhibitor	human liver microsomes	pH 7.4, together with: diclofenac	2.15
COc1ccc(F)cc1S(=O)(=O)Nc1cnc2c(c1)C(=O)NCCO2	enzyme activity, inhibitor	human, liver microsomes	with preincubation	> 100
Cc1ccc(N2CC3CCC(C2)N3C)cc1C(=O)N[C@H](C)c1cc(-c2cnn(C)c2)nc2ccccc12	enzyme activity	–	–	> 50
CCC1CN2CCc3c([nH]c4cccc(OC)c34)[C@@H]2CC1/C(=C\OC)C(=O)OC (stereo partly shown)	enzyme activity, inhibitor	–	30 min, pH 7.4	9.7 ± 4.8
COc1ccc2nc(C)cc(OCC(=O)Nc3cc(C)cc(C)c3)c2c1	inhibitor	–	–	2.8
CCn1ccc(-c2cc(-c3cnn(C)c3)cc([C@@H](C)NC(=O)c3cc(OCCN(C)C)ccc3C)c2)n1	enzyme activity, inhibitor	pooled human liver microsomes	10 (unit not given)	> 50
C[C@H](NCc1ccc(-c2ccc(C(F)(F)F)cc2)cc1)C(N)=O	enzyme activity, inhibitor, luciferase	–	pH 7.4	> 10
CCCCCc1cc(O)c2c(c1)OC(C)(C)C1CCC(C(=O)OC3OC(C(=O)O)C(O)C(O)C3O)=CC21 (stereo not shown)	inhibitor	–	30 min preincubation, together with: NADPH	15 ± 2.7
CC(C)(O)c1ccccc1CC[C@H](c1cccc(/C=C/c2ccc3ccc(Cl)cc3n2)c1)[S+]([O-])CC1(CC(=O)O)CC1 (stereo partly shown)	inhibitor	human liver microsomes	pH 7.4, together with: diclofenac	3.61
COc1ccc(CCNc2cc(-c3ccccc3)nc3ncnn23)cc1	–	–	–	1.6

Some of these lines once more:
Structure (SMILES)	assay	system	setting	IC50 [µM]
Cc1ccc2nc(C)c(C(=O)NCc3cccs3)n2c1	inhibitor	–	–	7.6
c1ccc(C2(CCNC3CCC4(SCCS4)c4ccccc43)CCOC3(CCCC3)C2)nc1 (stereo not shown)	enzyme activity, inhibitor	human, liver microsomes	–	34
COC(=O)c1ccc2c(c1)NC(=O)/C2=C(\Nc1ccc2c(c1)CCN2C(=O)CN1CCOCC1)c1ccccc1	–	–	10 min, together with: diclofenac 5 µM	35.4
